Experimental data pooled from the literature.
Numbered parts are unrelated; each lists some results of a single study. Substitutions count along the parent as printed.

Study 1 — method: protein binding microarray; molecule type: double-stranded DNA, one strand shown; sample: in vitro; tested at: not given; relative to: not given; direction: higher = stronger binding
Target: Histone acetyltransferase KAT6A, winged helix 1, GST fusion (KAT6A, Homo sapiens, UniProt Q92794, residues 1-85)
Setting: 8-mer, flanks averaged, mean of 2 arrays, mostly near background
Residues (chain): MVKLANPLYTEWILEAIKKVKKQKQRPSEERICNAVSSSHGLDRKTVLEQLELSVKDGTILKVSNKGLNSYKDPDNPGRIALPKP
| Strand | E-score |
| --- | --- |
| TAACGTTA | -0.0937 |
| CGTGCAAA | -0.0711 |
| CAAAGAGA | -0.149 |
| TCCCGACA | 0.147 |
| ACGTTTTC | 0.0392 |
| GGTGTCAC | 0.014 |

Study 2 — target: CCNB2, cyclin fold, Cln2 fusion (human); method: yeast growth competition, sequencing; sample: yeast; setting: weak parent motif; relative to: not given; direction: higher = stronger binding
Starting sequence: RBL2 docking peptide (human); STTRRRLFVENDS
| Change | normalised enrichment score |
| --- | --- |
| D12H | 0.49 |
| S1E | -0.0788 |
| F8N | 0.652 |
| T2S | 0.143 |
| T2R | 0.0439 |

Study 3 — method: DHFR PCA, deep sequencing; sample: yeast; together with: (+)-ABA 200 µM; relative to: wild-type fitted maximum; direction: higher = stronger binding
Target: ABI1, truncated, D143A, DHFR fusion (Arabidopsis thaliana)
Setting: methotrexate growth selection, single substitutions
Starting sequence: PYL1, truncated, DHFR fusion (Arabidopsis thaliana); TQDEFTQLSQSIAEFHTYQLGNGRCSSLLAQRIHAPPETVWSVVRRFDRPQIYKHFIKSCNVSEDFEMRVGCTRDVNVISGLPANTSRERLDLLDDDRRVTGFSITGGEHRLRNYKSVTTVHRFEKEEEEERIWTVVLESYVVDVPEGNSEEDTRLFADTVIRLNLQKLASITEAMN; partner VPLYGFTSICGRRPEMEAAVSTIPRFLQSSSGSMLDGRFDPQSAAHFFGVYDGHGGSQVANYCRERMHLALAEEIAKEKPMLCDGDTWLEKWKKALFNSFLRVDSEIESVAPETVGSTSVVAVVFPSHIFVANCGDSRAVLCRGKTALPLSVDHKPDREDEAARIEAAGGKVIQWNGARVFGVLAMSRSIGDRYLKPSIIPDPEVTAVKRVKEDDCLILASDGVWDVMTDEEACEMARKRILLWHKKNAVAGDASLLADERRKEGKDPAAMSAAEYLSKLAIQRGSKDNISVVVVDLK
| Change | relative binding score [%] |
| --- | --- |
| T154R | 0.452 |
| M68Y | 98.1 |
| Y115D | -15 |
| E129H | 110 |

Mixed results
| Substance | target | test | test system | conditions | how to read | quantity | value |
| --- | --- | --- | --- | --- | --- | --- | --- |
| PhoQ, residues 284 288 289 292 302 303 TGYLSA | PhoP, residues 12 14 15 18 19 LWHCS (Escherichia coli, UniProt P23836) | Sort-seq, measured: YFP reporter | E. coli | PhoQ-PhoP variant library, together with: 10 µM Mg2+ | relative to: high Mg2+ state, higher = stronger signaling | fold induction | 7.05 |

A few entries again (study 2):
| Change | normalised enrichment score |
| --- | --- |
| D12H | 0.49 |
| S1E | -0.0788 |
